Experimental data of several laboratories.
A part holds a random share of what one study measured. Values joined by “and” are separate records of one study, mostly repeats; a detail may differ.
UniProt P10721, sequence (whole entry, unmodified, looked up): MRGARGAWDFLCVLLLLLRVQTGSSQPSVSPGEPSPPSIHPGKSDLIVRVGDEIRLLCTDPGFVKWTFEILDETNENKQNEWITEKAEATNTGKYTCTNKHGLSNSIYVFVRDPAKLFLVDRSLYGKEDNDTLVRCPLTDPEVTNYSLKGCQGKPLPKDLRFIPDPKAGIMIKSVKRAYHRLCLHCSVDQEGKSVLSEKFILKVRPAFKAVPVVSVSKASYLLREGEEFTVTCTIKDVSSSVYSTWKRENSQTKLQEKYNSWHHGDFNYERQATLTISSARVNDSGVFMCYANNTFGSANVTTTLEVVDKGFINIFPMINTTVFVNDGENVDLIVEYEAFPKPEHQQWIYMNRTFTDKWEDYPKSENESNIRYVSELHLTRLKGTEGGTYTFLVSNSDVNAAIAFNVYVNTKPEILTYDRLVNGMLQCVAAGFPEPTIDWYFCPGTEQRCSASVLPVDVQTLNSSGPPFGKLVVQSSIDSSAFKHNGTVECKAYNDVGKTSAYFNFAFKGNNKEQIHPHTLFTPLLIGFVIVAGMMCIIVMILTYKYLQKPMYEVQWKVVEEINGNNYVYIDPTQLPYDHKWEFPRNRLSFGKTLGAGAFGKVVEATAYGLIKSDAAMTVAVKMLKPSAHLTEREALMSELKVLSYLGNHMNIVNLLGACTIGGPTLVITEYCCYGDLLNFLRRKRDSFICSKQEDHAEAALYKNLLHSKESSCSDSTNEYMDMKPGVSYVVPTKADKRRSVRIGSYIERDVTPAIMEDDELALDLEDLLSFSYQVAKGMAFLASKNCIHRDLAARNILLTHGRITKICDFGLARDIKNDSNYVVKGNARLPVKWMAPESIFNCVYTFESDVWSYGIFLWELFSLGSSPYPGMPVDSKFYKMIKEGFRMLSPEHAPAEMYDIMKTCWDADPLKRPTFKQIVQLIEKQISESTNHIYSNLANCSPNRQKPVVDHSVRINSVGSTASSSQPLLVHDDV
UniProt P48729, sequence (whole entry, looked up): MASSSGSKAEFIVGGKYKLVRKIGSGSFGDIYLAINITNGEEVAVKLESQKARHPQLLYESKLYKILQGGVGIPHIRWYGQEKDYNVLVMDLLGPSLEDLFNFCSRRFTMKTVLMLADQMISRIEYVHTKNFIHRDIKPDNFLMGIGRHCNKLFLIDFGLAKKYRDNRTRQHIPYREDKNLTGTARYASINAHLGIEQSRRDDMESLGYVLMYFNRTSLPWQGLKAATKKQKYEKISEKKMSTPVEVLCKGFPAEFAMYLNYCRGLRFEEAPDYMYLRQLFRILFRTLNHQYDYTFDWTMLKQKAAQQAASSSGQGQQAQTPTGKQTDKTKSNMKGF
UniProt P15170, sequence (whole entry, looked up): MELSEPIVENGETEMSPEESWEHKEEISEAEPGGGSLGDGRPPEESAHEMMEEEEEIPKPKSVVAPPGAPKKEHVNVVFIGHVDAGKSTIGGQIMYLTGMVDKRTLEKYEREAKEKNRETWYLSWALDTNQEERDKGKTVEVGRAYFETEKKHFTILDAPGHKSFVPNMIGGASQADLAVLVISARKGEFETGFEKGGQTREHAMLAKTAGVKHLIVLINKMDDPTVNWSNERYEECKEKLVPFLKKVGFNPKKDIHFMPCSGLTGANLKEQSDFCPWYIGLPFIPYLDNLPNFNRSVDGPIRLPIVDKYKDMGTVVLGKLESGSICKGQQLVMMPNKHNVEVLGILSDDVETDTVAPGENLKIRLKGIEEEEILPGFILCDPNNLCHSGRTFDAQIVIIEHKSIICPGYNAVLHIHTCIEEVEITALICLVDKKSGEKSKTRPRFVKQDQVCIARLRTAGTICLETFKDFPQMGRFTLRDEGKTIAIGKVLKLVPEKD
UniProt Q16512, sequence (whole entry, looked up): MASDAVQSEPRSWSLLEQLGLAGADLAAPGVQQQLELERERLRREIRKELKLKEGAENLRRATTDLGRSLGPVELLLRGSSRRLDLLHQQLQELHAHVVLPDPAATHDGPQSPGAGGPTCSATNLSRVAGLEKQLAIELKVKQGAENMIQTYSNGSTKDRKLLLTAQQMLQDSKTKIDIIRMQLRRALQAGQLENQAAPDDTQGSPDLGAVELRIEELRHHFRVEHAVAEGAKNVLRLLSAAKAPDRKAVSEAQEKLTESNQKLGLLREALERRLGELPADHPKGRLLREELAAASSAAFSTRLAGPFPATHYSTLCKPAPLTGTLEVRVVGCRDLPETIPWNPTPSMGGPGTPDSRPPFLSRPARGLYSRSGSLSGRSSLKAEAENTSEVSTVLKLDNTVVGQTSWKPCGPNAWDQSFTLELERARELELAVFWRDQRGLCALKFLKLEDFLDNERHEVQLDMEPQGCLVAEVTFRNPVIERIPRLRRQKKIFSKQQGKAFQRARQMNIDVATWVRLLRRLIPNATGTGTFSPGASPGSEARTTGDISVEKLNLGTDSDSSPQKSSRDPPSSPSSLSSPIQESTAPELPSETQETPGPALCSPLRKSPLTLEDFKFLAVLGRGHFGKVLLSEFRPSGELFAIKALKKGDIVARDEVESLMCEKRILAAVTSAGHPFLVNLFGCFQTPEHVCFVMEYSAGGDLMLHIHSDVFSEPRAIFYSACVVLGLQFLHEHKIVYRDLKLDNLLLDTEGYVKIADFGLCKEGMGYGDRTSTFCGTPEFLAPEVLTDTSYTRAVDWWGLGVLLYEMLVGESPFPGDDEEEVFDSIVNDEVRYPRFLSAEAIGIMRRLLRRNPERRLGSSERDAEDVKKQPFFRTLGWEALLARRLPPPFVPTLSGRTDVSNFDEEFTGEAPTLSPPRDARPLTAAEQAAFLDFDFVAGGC
UniProt O14733, sequence (whole entry, looked up): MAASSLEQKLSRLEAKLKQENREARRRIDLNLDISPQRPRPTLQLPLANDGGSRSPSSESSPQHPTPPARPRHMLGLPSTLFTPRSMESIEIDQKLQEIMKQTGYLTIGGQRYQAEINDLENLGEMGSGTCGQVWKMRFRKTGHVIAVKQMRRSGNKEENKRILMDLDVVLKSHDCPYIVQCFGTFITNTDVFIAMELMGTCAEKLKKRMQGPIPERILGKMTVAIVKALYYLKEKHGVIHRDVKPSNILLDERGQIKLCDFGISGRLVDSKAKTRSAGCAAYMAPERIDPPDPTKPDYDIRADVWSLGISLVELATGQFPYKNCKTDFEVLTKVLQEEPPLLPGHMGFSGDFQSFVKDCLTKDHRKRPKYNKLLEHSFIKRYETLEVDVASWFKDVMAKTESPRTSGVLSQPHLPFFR

Sample 1
Cell line: mouse MPNST tumor cells
Method: high-content immunofluorescence imaging
Refers to: nuclear SOX9
Concentration: 10 µM
Time: 12 h
Notes: mean of 2 replicates
Reference: DMSO control
Reading: higher = more nuclear SOX9
Structure (SMILES)	nuclear SOX9 intensity
CCOC(=O)[N-]c1c[n+](N2CCOCC2)no1	108 % of DMSO
O=C(O)c1cccnc1Nc1cccc(C(F)(F)F)c1	111 % of DMSO
CS(=O)(=O)c1ccc(-c2cc(Br)sc2-c2ccc(F)cc2)cc1	98.7 % of DMSO
C#C[C@]1(OC(C)=O)CC[C@H]2[C@@H]3CCC4=CC(=NO)CC[C@@H]4[C@H]3CC[C@@]21CC (mixture of isomers)	105 % of DMSO
CN1C(CCl)Nc2cc(Cl)c(S(N)(=O)=O)cc2S1(=O)=O (centres unmarked)	89 % of DMSO
COc1ccc(OC)c(C(O)CNC(=O)CN)c1 (centres unmarked)	104 % of DMSO
C/C(O)=C(\C#N)C(=O)Nc1ccc(C(F)(F)F)cc1	104 % of DMSO and 110 % of DMSO

Sample 2
SMILES: CC(C)S(=O)(=O)c1ccc2nccc(Nc3ccc4sc(C5CCCC5)nc4c3)c2c1
Observed: enzyme activity
Mode: inhibitor
Concentration: 1 µM
target	activity vs control [%]
Eukaryotic translation initiation factor 2-alpha kinase 1 (EIF2AK1, Homo sapiens, UniProt Q9BQI3)	122
Vascular endothelial growth factor receptor 3 (FLT4, Homo sapiens, UniProt P35916)	88.5
Serine/threonine-protein kinase TAO1 (TAOK1, Homo sapiens, UniProt Q7L7X3)	99
Tau-tubulin kinase 1 (TTBK1, Homo sapiens, UniProt Q5TCY1)	100
cAMP-dependent protein kinase catalytic subunit beta (PRKACB, Homo sapiens, UniProt P22694)	99.5
Wee1-like protein kinase 2 (WEE2, Homo sapiens, UniProt P0C1S8)	99
Testis-specific serine/threonine-protein kinase 4 (TSSK4, Homo sapiens, UniProt Q6SA08)	93

Sample 3
Structure (SMILES): C[C@@H]1CN(c2cc(-c3nn(C)c4ccc(OC5(C)CC5)cc34)ncn2)C[C@H](C)O1
Observed: cell-free assay
Method: competition with immobilised ligand
Concentration: 1 µM
target	remaining binding [%]
Mast/stem cell growth factor receptor Kit (KIT, Homo sapiens, UniProt P10721, L576P)	100
Tyrosine-protein kinase ABL1, phosphorylated (ABL1, Homo sapiens, UniProt P00519, Q252H)	58
Uncharacterized serine/threonine-protein kinase SBK3 (SBK3, Homo sapiens, UniProt P0C264)	100
Receptor tyrosine-protein kinase erbB-3 (ERBB3, Homo sapiens, UniProt P21860)	57
Serine/threonine-protein kinase 3 (STK3, Homo sapiens, UniProt Q13188)	100
Serine/threonine-protein kinase 4 (STK4, Homo sapiens, UniProt Q13043)	100
Serine/threonine-protein kinase Sgk3 (SGK3, Homo sapiens, UniProt Q96BR1)	67
Receptor-interacting serine/threonine-protein kinase 1 (RIPK1, Homo sapiens, UniProt Q13546)	98
Cyclin-dependent kinase-like 1 (CDKL1, Homo sapiens, UniProt Q00532)	89
Mast/stem cell growth factor receptor Kit (KIT, Homo sapiens, UniProt P10721, D816V)	94
1-phosphatidylinositol 3-phosphate 5-kinase (PIKFYVE, Homo sapiens, UniProt Q9Y2I7)	78
Serine/threonine-protein kinase Nek11 (NEK11, Homo sapiens, UniProt Q8NG66)	58
Epidermal growth factor receptor (EGFR, Homo sapiens, UniProt P00533, L861Q)	83
Serine/threonine-protein kinase LATS2 (LATS2, Homo sapiens, UniProt Q9NRM7)	58
Epidermal growth factor receptor (EGFR, Homo sapiens, UniProt P00533, G719S)	72
Mast/stem cell growth factor receptor Kit (KIT, Homo sapiens, UniProt P10721, T670I/V559D)	100
Serine/threonine-protein kinase BRSK1 (BRSK1, Homo sapiens, UniProt Q8TDC3)	97
Serine/threonine-protein kinase DCLK3 (DCLK3, Homo sapiens, UniProt Q9C098)	77
Serine/threonine-protein kinase 38 (STK38, Homo sapiens, UniProt Q15208)	57
Protein kinase C delta type (PRKCD, Homo sapiens, UniProt Q05655)	100
Hepatocyte growth factor receptor (MET, Homo sapiens, UniProt P08581)	100
Dual specificity mitogen-activated protein kinase kinase 7 (MAP2K7, Homo sapiens, UniProt O14733)	74
Serine/threonine-protein kinase N1 (PKN1, Homo sapiens, UniProt Q16512)	100
Homeodomain-interacting protein kinase 1 (HIPK1, Homo sapiens, UniProt Q86Z02)	85
Serine/threonine-protein kinase PAK 2 (PAK2, Homo sapiens, UniProt Q13177)	90

Sample 4
Compound: O=C1CCC(N2Cc3cc(C4CCN(Cc5ccccc5)CC4)ccc3C2=O)C(=O)N1 (centres unmarked)
Mode: degrader
SALL4: Sal-like protein 4 (SALL4, Homo sapiens, UniProt Q9UJQ4)
UniProt Q9UJQ4, sequence (whole entry, looked up): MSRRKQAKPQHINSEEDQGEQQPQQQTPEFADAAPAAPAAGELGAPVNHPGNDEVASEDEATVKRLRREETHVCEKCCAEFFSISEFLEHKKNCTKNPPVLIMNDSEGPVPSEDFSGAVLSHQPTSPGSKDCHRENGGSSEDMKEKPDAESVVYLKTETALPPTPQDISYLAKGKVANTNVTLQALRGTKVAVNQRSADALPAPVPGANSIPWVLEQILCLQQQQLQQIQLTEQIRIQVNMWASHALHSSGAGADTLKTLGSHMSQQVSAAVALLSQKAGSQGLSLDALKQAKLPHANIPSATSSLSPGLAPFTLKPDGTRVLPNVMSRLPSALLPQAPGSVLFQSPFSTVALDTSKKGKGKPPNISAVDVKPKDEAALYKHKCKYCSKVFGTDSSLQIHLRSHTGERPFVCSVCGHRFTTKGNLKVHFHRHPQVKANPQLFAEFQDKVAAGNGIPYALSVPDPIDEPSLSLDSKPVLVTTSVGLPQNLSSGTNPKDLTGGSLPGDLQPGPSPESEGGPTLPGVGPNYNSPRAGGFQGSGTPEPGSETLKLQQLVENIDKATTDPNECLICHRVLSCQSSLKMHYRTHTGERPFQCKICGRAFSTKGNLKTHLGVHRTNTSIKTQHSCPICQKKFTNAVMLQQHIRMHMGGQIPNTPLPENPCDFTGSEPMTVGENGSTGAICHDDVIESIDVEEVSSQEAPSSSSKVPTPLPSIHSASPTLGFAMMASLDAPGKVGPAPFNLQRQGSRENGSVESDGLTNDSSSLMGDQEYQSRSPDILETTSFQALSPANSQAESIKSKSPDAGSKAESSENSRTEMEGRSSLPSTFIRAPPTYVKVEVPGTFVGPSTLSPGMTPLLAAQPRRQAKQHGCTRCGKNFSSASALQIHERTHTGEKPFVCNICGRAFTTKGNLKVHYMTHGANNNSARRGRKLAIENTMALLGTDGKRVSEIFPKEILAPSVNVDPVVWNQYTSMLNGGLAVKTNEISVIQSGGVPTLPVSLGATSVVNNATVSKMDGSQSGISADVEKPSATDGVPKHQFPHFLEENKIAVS
DNA-binding protein Ikaros: DNA-binding protein Ikaros (Homo sapiens, UniProt Q13422)
UniProt Q13422, sequence (whole entry, looked up): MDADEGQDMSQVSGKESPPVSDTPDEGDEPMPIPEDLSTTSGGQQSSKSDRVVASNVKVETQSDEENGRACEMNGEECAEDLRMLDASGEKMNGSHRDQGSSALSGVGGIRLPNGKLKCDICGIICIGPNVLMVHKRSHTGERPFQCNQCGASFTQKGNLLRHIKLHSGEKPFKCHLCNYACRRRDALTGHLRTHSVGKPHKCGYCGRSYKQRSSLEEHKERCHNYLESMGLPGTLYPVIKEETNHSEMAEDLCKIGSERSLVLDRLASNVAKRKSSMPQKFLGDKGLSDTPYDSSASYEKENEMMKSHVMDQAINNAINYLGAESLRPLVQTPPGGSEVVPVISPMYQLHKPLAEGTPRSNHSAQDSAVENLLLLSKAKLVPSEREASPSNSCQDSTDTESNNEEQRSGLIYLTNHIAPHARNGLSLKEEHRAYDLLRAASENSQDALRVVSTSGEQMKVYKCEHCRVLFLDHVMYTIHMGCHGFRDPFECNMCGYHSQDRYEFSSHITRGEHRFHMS
target	assay	system	conditions	remaining protein
Eukaryotic peptide chain release factor GTP-binding subunit ERF3A (GSPT1, Homo sapiens, UniProt P15170)	HiBiT	HEK293	0.04115 µM	91.4% and 111%
SALL4	HiBiT	HEK293	0.004572 µM, 6 h	61.8%
CRBN/Zinc finger protein Helios (Homo sapiens, UniProt Q96SW2+Q9UKS7)	flow cytometry	primary human regulatory T cells	0.0001524 µM, 3 h	107%
Zinc finger protein Eos (IKZF4, Homo sapiens, UniProt Q9H2S9)	HiBiT	HEK293	0.0001524 µM, 6 h	110%
DNA-binding protein Ikaros	HiBiT	HEK293	0.3704 µM, 6 h	86.2%
Casein kinase I isoform alpha (CSNK1A1, Homo sapiens, UniProt P48729)	HiBiT	HEK293 HiBiT-CK1α	13.72 nM	95% and 90.7%
SALL4	HiBiT	HEK293	0.1235 µM, 6 h	56.5%
Zinc finger protein Aiolos (Homo sapiens, UniProt Q9UKT9)	HiBiT	HEK293	3.333 µM, 6 h	82.8%
SALL4	HiBiT	HEK293	0.04115 µM	54.2% and 53.7%
DNA-binding protein Ikaros	HiBiT	HEK293	0.1235 µM, 6 h	97.1%

Sample 5
SMILES: CC(C)(C)c1cnc(CSc2cnc(NC(=O)C3CCN(C(=O)COCCOCCSc4cccc5c4C(=O)N(C4CCC(=O)NC4=O)C5=O)CC3)s2)o1 (centres unmarked)
Cell line: HH
Method: CCK-8
conditions	viability
400 nM	61.5% and 54.4%
100 nM	98.6% and 99.4%
200 nM	95.3% and 98.1%
1 nM	99.2% and 100%

Repeated from above (sample 4):
target	assay	system	conditions	remaining protein
CRBN/Zinc finger protein Helios (Homo sapiens, UniProt Q96SW2+Q9UKS7)	flow cytometry	primary human regulatory T cells	0.0001524 µM, 3 h	107%
Zinc finger protein Eos (IKZF4, Homo sapiens, UniProt Q9H2S9)	HiBiT	HEK293	0.0001524 µM, 6 h	110%
DNA-binding protein Ikaros	HiBiT	HEK293	0.3704 µM, 6 h	86.2%
Casein kinase I isoform alpha (CSNK1A1, Homo sapiens, UniProt P48729)	HiBiT	HEK293 HiBiT-CK1α	13.72 nM	95% and 90.7%
SALL4	HiBiT	HEK293	0.1235 µM, 6 h	56.5%
Zinc finger protein Aiolos (Homo sapiens, UniProt Q9UKT9)	HiBiT	HEK293	3.333 µM, 6 h	82.8%
